# Results gathered from unrelated publications.
# Each numbered part is a random draw from the data of one study; scales do not carry over between parts.

# Study 1
# Target: RING finger protein unkempt homolog, zinc fingers 1-6, GST-SBP tag (UNK, Homo sapiens, UniProt Q9C0B0, residues 30-357)
# Technique: RNA Bind-n-Seq
# Form: RNA
# Matrix: in vitro
# Concentration: not given
# Setting: RNA with constant flanks, human and mouse sites, ends assumed
# Relative to: input RNA pool
# Reading: higher = stronger binding
# Shared flanks, not repeated: GGGAGUUCUACAGUCCGACGAUC … CAACAGAGGAUUGAGCAUCA
# Target sequence (chain): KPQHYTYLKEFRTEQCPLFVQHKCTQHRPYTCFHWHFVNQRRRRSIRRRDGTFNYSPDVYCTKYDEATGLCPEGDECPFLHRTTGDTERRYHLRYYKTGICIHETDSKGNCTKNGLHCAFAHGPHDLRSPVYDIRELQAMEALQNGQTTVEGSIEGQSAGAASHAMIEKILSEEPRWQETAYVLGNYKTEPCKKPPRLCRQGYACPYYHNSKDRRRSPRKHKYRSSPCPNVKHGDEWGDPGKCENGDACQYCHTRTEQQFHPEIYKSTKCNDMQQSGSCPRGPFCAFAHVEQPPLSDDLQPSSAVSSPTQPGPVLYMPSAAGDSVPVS
Strand,bound/input enrichment
ACUAACUCCUACUGCCGACGAACCGAAAAAUAAUUAAUGCAGAGGAGAUUUAUGUCUUAGCCAUAACUCCAGUUGUACAACUCAAUCGCCCCAUUCUCUUUUACGGUUCAAAAUGUACUG,0.208 ratio
GUGACCACAGACUAACCCUUUCUAGGCUUUAACAUUGUAAAUAAUCCUAUAAACAGUUUGAUUUUUUAAGAUGAUUUUUGAUUUGAAGAGACAGGCUUUACAUAAGCCUUCAUUCCUUCA,3.81 ratio
AUUGUAAAUGAUUUGUAUCGUAUGAUUAAGGAUCUAAGGCACAAUAUUUGUCACUGUUCUAUUAGACUUUUUACUGAAAAUGAAUAAUGGUGUAAUGGUUCUCCUGGGGCUGUCACAUUU,1.14 ratio
CUGGGGGAGGGCAUCUCCUGCUCCCUCCACCCUCCCAUUCACUCCCCCACCUUCCCCAAUUUUAGUUUCAUGCAAUAAAAAGGCCAAACUUUUAUUCCGUAAAACAUGAAGGACAAAACU,0.719 ratio
AAUAUGAUAACACAGUAUUGGCCUGAUCGAGAAACAGCACCAGGGGAUAUAUCCCCUUAUACUAUUCCAGAAGAAGAUCGCCAUUGUAUUCGAGAAAAUAUUGUAGAAGCCAUUAUCCAU,0.191 ratio
AUCGUGGGAGCACUGAUGGCAAGUGGAAAAGAAGUAGCAGGAAAAAUUCCCAAAGGGAAGUUAGUCGACUUUGAAGCUAUGACAGCCCCUGGUUCAGAGGCCUUUAGCAAAGUCGCCAAA,0.234 ratio
UUACCCGAGAACGAGGAUGAGCUGGAGAGCACCAACAGGCGCUACACCAAGAGGGACUGCAGCACUUUCCUCAGAACUAGUGAGACGGGCAUCGUGGACCAGGUCAUGGUCACUCUCAAC,0.102 ratio
UCUUUCCAGUAGUAGCCAGGAAAGGUUAUCUGGGUUAGGGUUUUUGUUGUUUGUAUUUAGUAGGUUUUUGUUUUGUUUUGUUUUGUUUAACCUCUGUGCUGUUUACAUAAACAAAUUGCU,63.1 ratio
GGCUGACAUGGCUGGCCAUUAAGCUUUAUAAAAUCAUGUGGGCUCUGAAAUUGUUCUUUUAUGUGUCUAGCAAGUAUUUAAUAAACCCUUGUAUAGUAAUUUUGUUGUUGUUGGGUGCUG,6.76 ratio
AAAAAAAGAAUAAAAAUCAGCCAUUUUCAACAAUUUAUAUUAUUUUUAAAAAUAAAUUUCACUAGUGCAUGGUUUUACAAUGGGAGAGAAUGCAACAGGGUGGUACAAAGACACACCGUG,1.68 ratio
UUCUACUUUGGCUCCCUAAAGCUGAAUUCAAUUCACAUCUCUCAGAGGUUCACCGUAGACAGCUUUGGAAACUACGCUUCCUGUGGACAAAUUGACUUCUCCUGAGGUGGAUCUUGGAAA,0.0906 ratio

# Study 2
# Target: Ras GTPase-activating protein-binding protein 1, full length (G3BP1, Homo sapiens, UniProt Q13283)
# Sequence of UniProt Q13283 (whole entry, looked up): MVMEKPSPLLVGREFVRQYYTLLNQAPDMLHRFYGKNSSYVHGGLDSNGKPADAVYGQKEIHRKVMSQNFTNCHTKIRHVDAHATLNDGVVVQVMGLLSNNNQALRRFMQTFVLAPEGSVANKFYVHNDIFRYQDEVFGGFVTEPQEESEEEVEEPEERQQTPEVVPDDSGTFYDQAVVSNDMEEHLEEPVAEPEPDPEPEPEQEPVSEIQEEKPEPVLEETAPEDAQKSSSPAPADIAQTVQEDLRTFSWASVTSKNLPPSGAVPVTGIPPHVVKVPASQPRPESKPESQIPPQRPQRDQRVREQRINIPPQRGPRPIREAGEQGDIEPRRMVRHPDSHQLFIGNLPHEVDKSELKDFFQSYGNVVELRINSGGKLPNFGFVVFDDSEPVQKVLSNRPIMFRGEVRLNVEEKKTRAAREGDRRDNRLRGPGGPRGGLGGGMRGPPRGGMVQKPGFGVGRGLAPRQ
# Technique: RNA Bind-n-Seq
# Form: RNA
# Matrix: in vitro
# Concentration: 200 nM
# Setting: whole 134-nt RNA, ends assumed
# With: 150 mM LiCl
# Relative to: input library
# Reading: higher = stronger binding
# All molecules: 7-deaza-guanosine replaces G
# Shared flanks, not repeated: GGGAGUUCUACAGUCCGACGAUC … UGGAAUUCUCGGGUGUCAAGG
Strand,log2 enrichment
UCCUGUGCUACACAUCGUAUGUACCGAAUCGGGGAAAAAAAGGGGUUUGGGGUUUGGGGAAAGUAUUAUGUUACGCCGUUCGGAUCUGCA,-0.606
UCAAGUCCUGUGCUACACAUCGUAUGUACCGAAUCGGUUUGGUUUUUUUGGUGGAAAGUAUUAUGUUACGCCGUUCGGAUCUGCACUUCC,-0.389
UCAAGUCCUGUGCUACACAUCGUAUGUACCGAAUCGGUUUUUGGUUUUUGGAGGAAAGUAUUAUGUUACGCCGUUCGGAUCUGCACUUCC,0.261
AGUCCUGUGCUACACAUCGUAUGUACCGAAUCGGGGAGGGGAAAGGGGAAAAAGGGGAAAGUAUUAUGUUACGCCGUUCGGAUCUGCACU,0.504
AGUCCUGUGCUACACAUCGUAUGUACCGAAUCGGCCCCCGGGCCCCCGGGGCCCCCGGAAAGUAUUAUGUUACGCCGUUCGGAUCUGCAC,-2.11
AAGUCCUGUGCUACACAUCGUAUGUACCGAAUCGGGAAAAAAAGGGAAAGGGUGGGAAAGUAUUAUGUUACGCCGUUCGGAUCUGCACUU,-0.532
CAAGUCCUGUGCUACACAUCGUAUGUACCGAAUCGGGAGGGUUUUUGGGAAAGGGAAAGUAUUAUGUUACGCCGUUCGGAUCUGCACUUC,0.372
UGGCCCUGGUGGCAUGCGGGGAGGAAGAGGUGGCCUCAUGGAUCGUGGUGGUCCCGGUGGAAUGUUCAGAGGUGGCAGUGGUGGAGACAG,-0.154
UGGCCCUGGUGGCAUGCGGGGAGGAAGAGGUGGCCUCAUGGAUCGUGGUGGUCCCGGUGGAAUGUUCAGAGGUGGCCGUGGUGCAGACAG,-0.456
AAGUCCUGUGCUACACAUCGUAUGUACCGAAUCGGGGCCCCGGCCCCGGGGCCCCGGAAAGUAUUAUGUUACGCCGUUCGGAUCUGCACU,-0.152
UCCUGUGCUACACAUCGUAUGUACCGAAUCGGGGAGGGGAAAAAAAGGGGUUUUUGGGGAAAGUAUUAUGUUACGCCGUUCGGAUCUGCA,0.943

# Study 3
# Target: Prothrombin, mature alpha-thrombin (F2, Homo sapiens, UniProt P00734)
# Technique: aptamer microarray, sandwich
# Form: DNA with 2'F-ANA
# Matrix: in vitro
# Concentration: 200 nM
# Setting: whole 15-mer aptamer, many near background
# With: Cy3 exosite-II aptamer, 400 nM
# Reading: higher = stronger binding
# Strand: GGTTGGTGTGGTTGG
Modification,mean fluorescence intensity
2'F-ANA at 1 6 7,185 a.u.
2'F-ANA at 1 2 6 7 8 9 10 11 13 15,51.4 a.u.
2'F-ANA at 2 3 5 8 10 11 12 15,60 a.u.
2'F-ANA at 4 5 6 9,72.8 a.u.
2'F-ANA at 1 6 7 8 11 13 14,58.3 a.u.
2'F-ANA at 4 6 7 8 12 14 15,135 a.u.
2'F-ANA at 1 2 6 7 8 9 14 15,59.1 a.u.
2'F-ANA at 1 2 3 5 8 9 13 14,50.9 a.u.
2'F-ANA at 3 5 8 9 10 11 14 15,60.5 a.u.
2'F-ANA at 2 3 4 5 7 10 11 12 13 15,61.8 a.u.
2'F-ANA at 3 6 11 14 15,535 a.u.
2'F-ANA at 2 4 10 11 14,66.4 a.u.
2'F-ANA at 1 2 4 6 7 8 9 10 13 15,49.2 a.u.
2'F-ANA at 2 3 4 6 7 11,522 a.u.
2'F-ANA at 1 2 4 8 9 10 11 13 14,70 a.u.
2'F-ANA at 1 4 5 6 8 9 10 14,48.1 a.u.
2'F-ANA at 1 4 11 12,229 a.u.
2'F-ANA at 3 4 5 6 7 8 10 13,503 a.u.
2'F-ANA at 2 4 5 6 7 9 11 12 13 14 15,50 a.u.
2'F-ANA at 1 2 3 4 7 9 10 13 14 15,96.2 a.u.
2'F-ANA at 1 2 3 4 6 7 9 12,303 a.u.
2'F-ANA at 5 8 9 11 13 14,48.4 a.u.
2'F-ANA at 3 4 5 12,281 a.u.
2'F-ANA at 4 5 6 8 9 12 14,47.7 a.u.
2'F-ANA at 4 6 7 8 9 11,260 a.u.

# Study 4
# Target: TAR DNA-binding protein 43, full length, His tag (TARDBP, Homo sapiens, UniProt Q13148, residues 1-414)
# Technique: RNA Bind-n-Seq
# Form: RNA
# Matrix: in vitro
# Concentration: 20 nM
# Setting: 6-mer, flanks averaged, single round
# With: 150 mM KCl
# Relative to: input library
# Reading: higher = stronger binding
Strand,6-mer enrichment (R)
AUAACC,0.623
GGCGCA,1.73
CCCGAA,0.681
UGAGAG,1.61
GUAAUG,0.926
UGCUGC,0.809
ACCGGA,0.889
CGCCUG,0.777
ACGUCG,0.86
GUAUCG,0.847
AGCAUU,0.593
UCUACC,0.553
UCACGU,0.626
CUGUCC,0.627
AAUAUU,0.658
CCUAGU,0.632
CGCUUU,0.614
CUUAUC,0.545
AGAAUG,1.07
CAAUCA,0.585
AGUCUC,0.578
CUGGUC,0.729
CUGCCC,0.644
UACUUC,0.535

# For quick reference, copied from above (study 1):
Strand,bound/input enrichment
AAAAAAAGAAUAAAAAUCAGCCAUUUUCAACAAUUUAUAUUAUUUUUAAAAAUAAAUUUCACUAGUGCAUGGUUUUACAAUGGGAGAGAAUGCAACAGGGUGGUACAAAGACACACCGUG,1.68 ratio
AUUGUAAAUGAUUUGUAUCGUAUGAUUAAGGAUCUAAGGCACAAUAUUUGUCACUGUUCUAUUAGACUUUUUACUGAAAAUGAAUAAUGGUGUAAUGGUUCUCCUGGGGCUGUCACAUUU,1.14 ratio
GUGACCACAGACUAACCCUUUCUAGGCUUUAACAUUGUAAAUAAUCCUAUAAACAGUUUGAUUUUUUAAGAUGAUUUUUGAUUUGAAGAGACAGGCUUUACAUAAGCCUUCAUUCCUUCA,3.81 ratio
UCUUUCCAGUAGUAGCCAGGAAAGGUUAUCUGGGUUAGGGUUUUUGUUGUUUGUAUUUAGUAGGUUUUUGUUUUGUUUUGUUUUGUUUAACCUCUGUGCUGUUUACAUAAACAAAUUGCU,63.1 ratio
AUCGUGGGAGCACUGAUGGCAAGUGGAAAAGAAGUAGCAGGAAAAAUUCCCAAAGGGAAGUUAGUCGACUUUGAAGCUAUGACAGCCCCUGGUUCAGAGGCCUUUAGCAAAGUCGCCAAA,0.234 ratio
UUCUACUUUGGCUCCCUAAAGCUGAAUUCAAUUCACAUCUCUCAGAGGUUCACCGUAGACAGCUUUGGAAACUACGCUUCCUGUGGACAAAUUGACUUCUCCUGAGGUGGAUCUUGGAAA,0.0906 ratio
GGCUGACAUGGCUGGCCAUUAAGCUUUAUAAAAUCAUGUGGGCUCUGAAAUUGUUCUUUUAUGUGUCUAGCAAGUAUUUAAUAAACCCUUGUAUAGUAAUUUUGUUGUUGUUGGGUGCUG,6.76 ratio
UUACCCGAGAACGAGGAUGAGCUGGAGAGCACCAACAGGCGCUACACCAAGAGGGACUGCAGCACUUUCCUCAGAACUAGUGAGACGGGCAUCGUGGACCAGGUCAUGGUCACUCUCAAC,0.102 ratio
ACUAACUCCUACUGCCGACGAACCGAAAAAUAAUUAAUGCAGAGGAGAUUUAUGUCUUAGCCAUAACUCCAGUUGUACAACUCAAUCGCCCCAUUCUCUUUUACGGUUCAAAAUGUACUG,0.208 ratio
CUGGGGGAGGGCAUCUCCUGCUCCCUCCACCCUCCCAUUCACUCCCCCACCUUCCCCAAUUUUAGUUUCAUGCAAUAAAAAGGCCAAACUUUUAUUCCGUAAAACAUGAAGGACAAAACU,0.719 ratio
AAUAUGAUAACACAGUAUUGGCCUGAUCGAGAAACAGCACCAGGGGAUAUAUCCCCUUAUACUAUUCCAGAAGAAGAUCGCCAUUGUAUUCGAGAAAAUAUUGUAGAAGCCAUUAUCCAU,0.191 ratio
